# Measured values collected from several papers.
# A part holds a random share of what one study measured.

# Series 1
# Target: Probable WRKY transcription factor 50, DNA-binding domain (WRKY50, Arabidopsis thaliana, UniProt Q8VWQ5, residues 99-173)
# Technique: DNA-protein interaction ELISA
# Molecule type: double-stranded DNA, one strand shown
# Sample: in vitro, bacterial lysate
# Concentration: not given
# Setting: whole dsDNA probe, crude lysate protein
# Baseline: highest signal in screen
# Direction: higher = stronger binding
# Construct (chain): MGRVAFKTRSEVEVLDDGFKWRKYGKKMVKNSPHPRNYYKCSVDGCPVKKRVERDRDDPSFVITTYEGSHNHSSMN
Strand,relative absorbance
AAAAAAGAGAATTGTCAGTGCCCAACAAAA,30.7 % of maximum
AAAAAATACGTCTACGTGGTTGTCGTAAAA,46.5 % of maximum
AAAAAATAAACGTGTTCATACTTAGTAAAA,11.7 % of maximum
AAAAAAAAGCGTTACATCATATGGAAAAAA,14.9 % of maximum
AAAAAACCCCAGATTTCCAGCAGTTCAAAA,41.3 % of maximum
AAAAAAAACTCCCATACTACAACCGAAAAA,20.4 % of maximum
AAAAAACACGCCATTGACACTGGTAAAAAA,17.3 % of maximum

# Series 2
# Target: Centromere-binding protein 1, full length, His-tagged (CBF1, Saccharomyces cerevisiae, UniProt P17106, residues 1-351)
# UniProt P17106, sequence (whole entry, looked up): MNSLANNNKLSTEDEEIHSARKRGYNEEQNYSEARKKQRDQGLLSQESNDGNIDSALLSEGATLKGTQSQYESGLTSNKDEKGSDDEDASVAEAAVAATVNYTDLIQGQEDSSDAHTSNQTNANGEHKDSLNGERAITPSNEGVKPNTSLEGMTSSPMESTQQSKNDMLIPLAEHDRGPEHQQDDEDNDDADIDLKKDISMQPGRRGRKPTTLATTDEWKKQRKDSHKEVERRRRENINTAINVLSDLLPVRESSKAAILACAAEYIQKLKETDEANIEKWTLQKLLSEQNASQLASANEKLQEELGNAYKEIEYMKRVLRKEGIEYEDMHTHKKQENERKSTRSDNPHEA
# Technique: competition protein-binding microarray
# Molecule type: double-stranded DNA, one strand shown
# Sample: in vitro
# Concentration: 2 µM
# Setting: whole 60-bp probe, lowest competitor level
# With: Pho4 competitor, 0.05 µM
# Direction: higher = stronger binding
# Shared flanks, not repeated: … GTCTTGATTCGCTTGACGCTGCTG
Strand,fluorescence intensity [a.u.]
GCCTGGGTGGCGGGCTATGTGGTGAATGCAGAGGGT,71.4
CTGCTTTAGAATTTGTCCGTGACGGGTACTCTAACA,91.5
AGAAAGACCCAGAGGCACATGCAAGATAGTTGTGCC,108
GTCTTGTCTCATTGCTCAGTGGGTGTCCCCACTTCA,81.8
CGGGGTTAAGTTTTTCACGTGTTGTGCTTGCAGCAG,841
TATCACTCTTGATCGCATGTGCCGTTTCCGAGAACG,105
CTTCTGTAAATTTGGTCCGTGGGTGGACGCGCCCCG,72.4
GCACTAGTAGAATCGCACGTGTTGGGTTCCCCAAGT,847

# Series 3
# Target: Histone acetyltransferase KAT6A, winged helix 2, GST fusion (KAT6A, Homo sapiens, UniProt Q92794, residues 85-181)
# Technique: protein binding microarray
# Molecule type: double-stranded DNA, one strand shown
# Sample: in vitro
# Concentration: not given
# Setting: 8-mer, flanks averaged, mean of 2 arrays, mostly near background
# Baseline: not given
# Direction: higher = stronger binding
# Residues (chain): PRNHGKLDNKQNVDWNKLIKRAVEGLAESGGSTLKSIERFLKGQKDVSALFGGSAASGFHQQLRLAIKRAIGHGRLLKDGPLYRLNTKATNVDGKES
Strand,E-score
GGAGCTTA,0.0225
AAGCCCAA,-0.0573
AATGGAAA,-0.0669
AGAGGGAC,0.114
CTTCTTCC,-0.0654
AAGAACGG,-0.0777
ATAAAGCG,0.0868
ACCTCAGT,-0.128
ATCTTTCC,-0.072
CATAAGGG,0.00918
CTTGTCAA,0.12

# Mixed results
Molecule,target,test,system,conditions,scale,endpoint,result
"PhoQ, residues 284 288 289 292 302 303 TVTVVA","PhoP, residues 12 14 15 18 19 LQHIR (Escherichia coli, UniProt P23836)","Sort-seq, refers to: YFP reporter",E. coli,"PhoQ-PhoP variant library, with: 10 µM Mg2+","baseline: high Mg2+ state, higher = stronger signaling",fold induction,6.91
